Measurements of several laboratories.
Compare with care: the assays were run in different laboratories. ± marks the error that the study gave.
Cell line: HCT-15

CCCC[N+]1=c2cc3c4cc2[O][Mn-2]1(=[C]=O)(=[C]=O)(=[C]=O)[n+]1ccc(cc1)C(=O)OCCOCCOC(=O)c1cc[n+](cc1)[Mn-2](=[C]=O)(=[C]=O)(=[C]=O)([O]3)[N+]=4CCCC
IC50 (cell growth, MTT; 48 h, LED light photolysis 1 h): > 50 µM

CC(=O)[O][Pt]([NH2])([NH2])([Cl])([Cl])[O]C(=O)C(C)c1ccc(CC(C)C)cc1 (centres unmarked)
IC50 (cell growth or viability, MTT; 72 h): 1.98 µM

COc1cc(S(=O)(=O)Oc2ccc3[nH]c(C)cc3c2F)cc(OC)c1OC
IC50 (cell growth or viability; 72 h): 0.00416 µM

c1ccc2c(-c3cn(-c4ccncc4)nn3)c3ccccc3c(-c3cn(-c4ccncc4)nn3)c2c1
IC50 (cell growth or viability, MTT; 24 h): > 20 µM

CNC(=O)C1CCCN(C(=O)C2CC3CCC2N3C(=O)[C@@H]2C[C@@H](O)CN2C(=O)NCc2cccc(Cl)c2F)C1 (mixture of isomers)
IC50 (cell growth or viability, CCK-8; 72 h): 5.51 µM

CCCC[N+]1=c2cc3c4cc2[O][Mn-2]1(=[C]=O)(=[C]=O)(=[C]=O)[n+]1ccc(cc1)C(=O)Nc1ccccc1NC(=O)c1cc[n+](cc1)[Mn-2](=[C]=O)(=[C]=O)(=[C]=O)([O]3)[N+]=4CCCC
IC50 (cell growth, MTT; 48 h, LED light photolysis 1 h): 2.58 ± 0.57 µM

Cn1ncc(-c2ccc3c(=O)[nH]nc(CN)c3c2)c1-c1c(F)c(Cl)cc(OC2CC2)c1C#N
IC50 (cell viability, inhibitor, CellTiter-Glo; 120 h, baseline-subtracted): 3.7 µM

CCCC[N+]1=c2cc3c4cc2[O][Mn-2]1(=[C]=O)(=[C]=O)(=[C]=O)[n+]1ccc(cc1)C(=O)Oc1ccccc1OC(=O)c1cc[n+](cc1)[Mn-2](=[C]=O)(=[C]=O)(=[C]=O)([O]3)[N+]=4CCCC
IC50 (cell growth, MTT; 48 h, LED light photolysis 1 h): 7.88 ± 0.85 µM

Cc1ccc(C(C)C)cc1.Cc1ccc(C(C)C)cc1.Cc1ccc(C(C)C)cc1.Cc1ccc(C(C)C)cc1.O=S(=O)(O)C(F)(F)F.O=S(=O)(O)C(F)(F)F.O=S(=O)(O)C(F)(F)F.O=S(=O)(O)C(F)(F)F.c1ccc2c3c4ccccc4c(c2c1)-c1cn(nn1)-c1cc[n+](cc1)[Ru-]1[O]c2c4ccccc4c4c5c(c6ccccc6c(c25)=[O+]1)=[O+][Ru-]([O]4)[n+]1ccc(cc1)-n1cc(nn1)-c1c2ccccc2c(c2ccccc12)-c1cn(nn1)-c1cc[n+](cc1)[Ru-]1[O]c2c4ccccc4c4c5c(c6ccccc6c(c25)=[O+]1)=[O+][Ru-]([O]4)[n+]1ccc(cc1)-n1cc-3nn1
IC50 (cell growth, MTT; 24 h, after 24 h preincubation in medium at 37 °C): 17.9 ± 0.74 µM

CCCC(CCC)C(=O)[O][Pt]([NH2])([NH2])([Cl])([Cl])[O]C(C)=O
IC50 (cell growth or viability, MTT; 72 h): 5.39 µM

CNS(=O)(=O)Nc1nccc(Cc2c(C)c3ccc(Oc4ncccc4F)cc3oc2=O)c1F
IC50 (cell viability; 7 days): > 1 µM

A few entries again:
CCCC[N+]1=c2cc3c4cc2[O][Mn-2]1(=[C]=O)(=[C]=O)(=[C]=O)[n+]1ccc(cc1)C(=O)Oc1ccccc1OC(=O)c1cc[n+](cc1)[Mn-2](=[C]=O)(=[C]=O)(=[C]=O)([O]3)[N+]=4CCCC
IC50 (cell growth, MTT; 48 h, LED light photolysis 1 h): 7.88 ± 0.85 µM
